Published values gathered from unrelated publications.
Each line is one published result; not all experiments were run side by side. pIC50, pKd: −log10 of the molar value. Non-standard residues stand in square brackets, D forms with d. No end group written: not given here.
BAK1 kinase domain 250-591: BAK1 kinase domain 250-591, pT446/pT449/pT450 (Arabidopsis thaliana, UniProt Q94F62)
UniProt Q94F62, sequence (whole entry, looked up): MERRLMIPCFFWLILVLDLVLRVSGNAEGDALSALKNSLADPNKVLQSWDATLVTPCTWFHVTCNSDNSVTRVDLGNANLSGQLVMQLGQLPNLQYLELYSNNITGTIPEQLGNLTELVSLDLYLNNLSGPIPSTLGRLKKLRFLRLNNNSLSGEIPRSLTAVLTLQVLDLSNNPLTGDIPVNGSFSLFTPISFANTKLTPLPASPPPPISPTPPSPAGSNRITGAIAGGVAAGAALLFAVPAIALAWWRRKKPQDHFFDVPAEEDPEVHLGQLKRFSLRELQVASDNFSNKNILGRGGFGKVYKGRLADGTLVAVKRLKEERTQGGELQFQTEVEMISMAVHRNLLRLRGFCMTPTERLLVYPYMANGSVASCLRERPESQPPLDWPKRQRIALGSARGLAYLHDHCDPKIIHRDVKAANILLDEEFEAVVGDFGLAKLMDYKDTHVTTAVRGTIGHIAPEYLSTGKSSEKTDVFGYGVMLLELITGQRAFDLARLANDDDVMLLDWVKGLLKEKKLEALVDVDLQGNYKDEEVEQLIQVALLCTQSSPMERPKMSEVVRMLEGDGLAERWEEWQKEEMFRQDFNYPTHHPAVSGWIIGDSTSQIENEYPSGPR
B1: K4 peptide residues 1-21 (Kaposi's sarcoma-associated herpesvirus); cysteine pairing not given here; all D-residues; chain [dL]G[dA][dS][dW][dH][dR][dP][dD][dK][dC][dC][dL]G[dY][dQ][dK][dR][dP][dL][dP]
B2: avrPtoB 250-380 (Pseudomonas syringae, UniProt Q8RSY1); sequence looked up; chain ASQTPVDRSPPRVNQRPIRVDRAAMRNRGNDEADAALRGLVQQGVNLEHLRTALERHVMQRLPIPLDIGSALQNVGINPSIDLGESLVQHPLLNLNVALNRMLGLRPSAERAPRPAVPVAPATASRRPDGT
B3: avrPtoB 250-359 (Pseudomonas syringae, UniProt Q8RSY1); chain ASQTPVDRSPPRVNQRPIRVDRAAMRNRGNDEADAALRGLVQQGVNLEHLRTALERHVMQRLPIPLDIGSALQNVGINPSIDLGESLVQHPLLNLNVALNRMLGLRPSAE
UniProt P00772, sequence (whole entry, looked up): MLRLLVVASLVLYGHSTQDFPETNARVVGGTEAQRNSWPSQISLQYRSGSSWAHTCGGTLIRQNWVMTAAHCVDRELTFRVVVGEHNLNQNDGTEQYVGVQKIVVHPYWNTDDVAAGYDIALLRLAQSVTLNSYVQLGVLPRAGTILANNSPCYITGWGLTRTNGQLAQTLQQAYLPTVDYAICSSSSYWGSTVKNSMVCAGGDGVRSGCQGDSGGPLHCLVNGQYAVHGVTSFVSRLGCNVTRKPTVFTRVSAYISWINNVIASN
UniProt O60602, sequence (whole entry, unmodified, looked up): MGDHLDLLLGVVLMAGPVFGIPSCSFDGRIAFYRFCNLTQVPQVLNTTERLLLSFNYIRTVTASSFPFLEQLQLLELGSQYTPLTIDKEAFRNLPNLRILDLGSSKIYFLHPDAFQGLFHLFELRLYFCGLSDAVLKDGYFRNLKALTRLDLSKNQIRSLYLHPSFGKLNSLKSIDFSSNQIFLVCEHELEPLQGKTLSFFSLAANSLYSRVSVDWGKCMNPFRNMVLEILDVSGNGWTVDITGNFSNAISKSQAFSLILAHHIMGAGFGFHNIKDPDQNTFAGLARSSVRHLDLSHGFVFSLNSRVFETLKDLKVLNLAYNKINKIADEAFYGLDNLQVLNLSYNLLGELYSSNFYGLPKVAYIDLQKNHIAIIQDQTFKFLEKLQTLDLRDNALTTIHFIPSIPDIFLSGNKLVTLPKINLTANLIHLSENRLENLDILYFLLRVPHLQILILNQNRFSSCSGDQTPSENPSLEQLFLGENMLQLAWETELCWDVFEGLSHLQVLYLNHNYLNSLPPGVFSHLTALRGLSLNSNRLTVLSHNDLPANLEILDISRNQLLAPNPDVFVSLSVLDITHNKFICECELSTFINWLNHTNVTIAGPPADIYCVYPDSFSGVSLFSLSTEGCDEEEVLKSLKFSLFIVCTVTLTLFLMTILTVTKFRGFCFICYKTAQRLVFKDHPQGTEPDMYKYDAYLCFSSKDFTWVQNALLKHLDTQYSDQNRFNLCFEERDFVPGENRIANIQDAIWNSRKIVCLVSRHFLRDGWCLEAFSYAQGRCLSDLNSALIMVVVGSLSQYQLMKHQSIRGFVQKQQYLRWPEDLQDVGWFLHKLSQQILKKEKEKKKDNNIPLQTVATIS
UniProt P80200, sequence (whole entry, looked up): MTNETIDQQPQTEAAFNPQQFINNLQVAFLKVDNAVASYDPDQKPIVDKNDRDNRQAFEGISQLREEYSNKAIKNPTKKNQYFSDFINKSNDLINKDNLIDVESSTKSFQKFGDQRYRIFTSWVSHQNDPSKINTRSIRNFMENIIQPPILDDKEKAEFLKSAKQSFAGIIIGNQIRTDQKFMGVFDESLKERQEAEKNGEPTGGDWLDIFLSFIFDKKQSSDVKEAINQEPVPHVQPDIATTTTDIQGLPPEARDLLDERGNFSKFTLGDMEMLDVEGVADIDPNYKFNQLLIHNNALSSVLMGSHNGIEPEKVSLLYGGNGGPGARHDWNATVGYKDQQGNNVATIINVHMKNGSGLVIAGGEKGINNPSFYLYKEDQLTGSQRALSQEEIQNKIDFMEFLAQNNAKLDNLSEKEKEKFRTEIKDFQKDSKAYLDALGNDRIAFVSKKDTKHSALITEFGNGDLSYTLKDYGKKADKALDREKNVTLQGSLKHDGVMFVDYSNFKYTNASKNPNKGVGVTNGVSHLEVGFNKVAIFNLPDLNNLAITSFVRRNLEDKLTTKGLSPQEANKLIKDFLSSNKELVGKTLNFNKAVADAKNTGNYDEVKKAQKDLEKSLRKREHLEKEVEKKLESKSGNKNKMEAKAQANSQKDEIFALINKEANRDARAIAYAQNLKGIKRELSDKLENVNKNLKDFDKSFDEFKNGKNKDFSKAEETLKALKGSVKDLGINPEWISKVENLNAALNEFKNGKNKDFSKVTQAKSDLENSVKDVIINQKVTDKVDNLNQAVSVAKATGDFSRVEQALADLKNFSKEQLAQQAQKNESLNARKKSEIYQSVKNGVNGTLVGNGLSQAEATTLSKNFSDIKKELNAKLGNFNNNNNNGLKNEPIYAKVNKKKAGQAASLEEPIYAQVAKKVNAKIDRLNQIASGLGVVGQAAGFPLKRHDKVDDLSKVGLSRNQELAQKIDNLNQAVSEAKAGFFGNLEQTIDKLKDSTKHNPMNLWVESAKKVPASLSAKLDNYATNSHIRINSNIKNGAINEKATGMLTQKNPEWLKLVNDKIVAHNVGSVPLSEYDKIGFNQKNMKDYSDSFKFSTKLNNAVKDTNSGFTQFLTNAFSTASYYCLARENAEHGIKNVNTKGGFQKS
UniProt Q13761, sequence (whole entry, looked up): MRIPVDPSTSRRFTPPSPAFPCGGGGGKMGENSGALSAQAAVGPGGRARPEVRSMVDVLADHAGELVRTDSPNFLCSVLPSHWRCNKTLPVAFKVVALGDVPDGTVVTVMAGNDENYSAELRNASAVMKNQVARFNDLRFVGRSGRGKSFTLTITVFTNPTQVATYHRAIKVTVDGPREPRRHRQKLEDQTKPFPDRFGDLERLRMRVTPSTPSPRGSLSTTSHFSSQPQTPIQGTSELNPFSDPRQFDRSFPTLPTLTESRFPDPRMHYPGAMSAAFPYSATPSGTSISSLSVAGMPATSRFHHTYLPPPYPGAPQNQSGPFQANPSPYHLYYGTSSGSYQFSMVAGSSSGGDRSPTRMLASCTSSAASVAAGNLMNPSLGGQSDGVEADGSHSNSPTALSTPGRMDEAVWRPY
UniProt P61073, sequence (whole entry, looked up): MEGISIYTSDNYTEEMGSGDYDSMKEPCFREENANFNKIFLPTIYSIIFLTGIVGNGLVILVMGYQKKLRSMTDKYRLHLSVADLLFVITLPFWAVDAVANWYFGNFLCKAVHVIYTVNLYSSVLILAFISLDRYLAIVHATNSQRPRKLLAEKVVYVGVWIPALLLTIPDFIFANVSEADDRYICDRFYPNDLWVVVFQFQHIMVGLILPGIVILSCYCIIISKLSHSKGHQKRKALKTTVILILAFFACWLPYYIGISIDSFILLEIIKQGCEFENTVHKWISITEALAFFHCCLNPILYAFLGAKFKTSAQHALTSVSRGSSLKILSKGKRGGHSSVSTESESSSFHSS

B1 (K4 peptide residues 1-21)  pIC50 (CXCR4 (Homo sapiens, UniProt P61073); competition with 12G5 antibody, competitor, flow cytometry; peptide, CXCR4 transfected cells): 7.37
SipD fragment C244S/S331C, MTSL spin label at 331 (Salmonella) (sequence not shown)  binding (PrgI fragment (Salmonella); NMR paramagnetic relaxation enhancement): binds
RmS-17, glycosylated (Rhipicephalus microplus)  protease inhibition (trypsin (Bos taurus); chromogenic substrate hydrolysis, inhibitor; 1 µM): 87%
B2 (avrPtoB 250-380)  binding (BAK1 kinase domain 250-591; SEC): binds
HBA1/HBB mature (human) (sequence not shown)  pKd (isdB (Staphylococcus aureus, UniProt A6QG30); BLI): 7.26
RmS-6, glycosylated (Rhipicephalus microplus)  protease inhibition (CELA1 (Sus scrofa, UniProt P00772); chromogenic substrate hydrolysis, inhibitor; 1 µM): < 20%
fur (Acinetobacter baumannii, UniProt Q9ZAJ4)  relative binding (BlsA (Acinetobacter baumannii); pull-down; relative to: light, higher = more binding in dark): 2 fold
LDYHFGLEEGEGIRDLFD (E2F1 409-426 (Homo sapiens, UniProt Q01094))  pKd (RB1/E7 RB ; E7 55-787 del245-267/del582-642, phosphorylated by Cdk2-CycA (human papillomavirus); ITC; pH 8.0, NaCl 100 mM, together with: LxCxE peptide 100 µM): 6.47
B3 (avrPtoB 250-359)  pKd (BAK1 kinase domain 250-591; ITC): 5.46
RUNX3 (Homo sapiens, UniProt Q13761)  half-life (CagA (Helicobacter pylori, UniProt P80200); cycloheximide chase; COS-7; co-expressed with CagA, together with: cycloheximide 100 µg/mL): 1.5 h
RmS-3, glycosylated (Rhipicephalus microplus)  protease inhibition (F10 factor Xa (Bos taurus); chromogenic substrate hydrolysis, inhibitor; 1 µM): < 20%
fliC del126-128/T129G/Q130G/K135E (Salmonella enterica)  decrease in NF-κB reporter signaling (TLR5 (Homo sapiens, UniProt O60602); NF-κB luciferase reporter; HEK293; EC50 ratio; relative to: CBLB502 EC50, higher = weaker activity): 800 fold
NLWAAQRYGRELRRMSDEFVDSFKK (BAD BH3 domain)  pKd (M11 1-136 (UniProt P89884); ITC; peptide; 14 °C, single-site model): 4.48

A few entries again:
B1 (K4 peptide residues 1-21)  pIC50 (CXCR4 (Homo sapiens, UniProt P61073); competition with 12G5 antibody, competitor, flow cytometry; peptide, CXCR4 transfected cells): 7.37
